# Measured values pooled from the literature.
# Protocols differ between the studies behind these lines. Values joined by “and” are separate records of one study, mostly repeats; a detail may differ. ± gives the spread as reported.
# Chain of UniProt O94921 (whole entry, looked up): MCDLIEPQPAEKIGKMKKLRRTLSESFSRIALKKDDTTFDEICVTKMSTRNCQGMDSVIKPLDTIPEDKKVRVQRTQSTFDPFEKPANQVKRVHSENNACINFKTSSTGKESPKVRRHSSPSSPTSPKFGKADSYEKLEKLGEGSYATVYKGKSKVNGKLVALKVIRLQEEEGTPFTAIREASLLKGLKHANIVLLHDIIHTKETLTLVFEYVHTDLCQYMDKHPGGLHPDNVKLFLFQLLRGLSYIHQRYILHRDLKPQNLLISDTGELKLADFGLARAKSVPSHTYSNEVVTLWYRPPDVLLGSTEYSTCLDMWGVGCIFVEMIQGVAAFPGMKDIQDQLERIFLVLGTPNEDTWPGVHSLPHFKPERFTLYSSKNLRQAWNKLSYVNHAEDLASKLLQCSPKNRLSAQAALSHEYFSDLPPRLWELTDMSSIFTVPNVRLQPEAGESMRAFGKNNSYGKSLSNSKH
SMILES,target or system,test,test system,conditions,how to read,measurement,value
CC(C)[C@@H]1NC(=O)CNC(=O)[C@H](CC(N)=O)NC(=O)[C@H](CCCNC(=N)N)NC(=O)[C@H](Cc2ccc(O)cc2)NC(=O)[C@H](C(C)C)NC(=O)[C@@H](NC(=O)[C@@H](NC(=O)[C@H](CC(N)=O)NC(=O)[C@H](Cc2c[nH]c3ccccc23)NC(=O)[C@H](C)NC(=O)[C@H](Cc2ccccc2)NC(=O)CNC(=O)[C@H](CCCCN)NC(=O)[C@H](Cc2ccccc2)NC(=O)[C@H](Cc2ccccc2)NC(=O)[C@H](CCCCN)NC(=O)OCC2c3ccccc3-c3ccccc32)C(C)C)CSSC[C@@H](C(=O)N[C@@H](Cc2c[nH]cn2)C(=O)N[C@@H](CCCNC(=N)N)C(=O)N[C@@H](CCCNC(=N)N)C(=O)N[C@@H](C)C(=O)N[C@@H](CC(N)=O)C(N)=O)NC(=O)[C@H](C(C)C)NC(=O)[C@H](CCCNC(=N)N)NC1=O,,,ICR mouse,"ip, 10 mg/kg",direction not given,tremor score,0
C=Cc1c(C)c2cc3nc(c(CC(=O)O)c4[nH]c(cc5nc(cc1[nH]2)C(C)=C5CC)c(C)c4C(=O)O)[C@@H](CCC(=O)NCCCC[C@H](NC(C)=O)C(=O)N[C@@H](Cc1ccccc1)C(=O)N[C@@H](Cc1ccccc1)C(=O)N[C@H](C(=O)N[C@@H](CC(C)C)C(=O)N[C@@H](CCCCN)C(=O)N[C@@H](CO)C(=O)NCC(=O)N[C@@H](CCC(N)=O)C(=O)N[C@@H](Cc1ccc(O)cc1)C(=O)N[C@@H](C)C(=O)N[C@@H](CO)C(=O)N[C@@H](Cc1ccc(O)cc1)C(=O)N[C@@H](Cc1c[nH]cn1)C(=O)N[C@@H](CS)C(=O)N[C@@H](Cc1c[nH]c2ccccc12)C(=O)N[C@@H](CS)C(=O)N[C@@H](Cc1c[nH]c2ccccc12)C(=O)N[C@@H](CCCNC(=N)N)C(=O)N[C@@H](CC(=O)O)C(=O)N1CCC[C@H]1C(=O)NCC(=O)N[C@@H](CCCNC(=N)N)C(=O)N[C@@H](CO)C(=O)NCC(=O)NCC(=O)N[C@@H](CO)C(=O)N[C@@H](CCCCN)C(N)=O)C(C)C)[C@@H]3C,,,"mouse, blood",3 h,,blood concentration,117 µg/mL and 131 µg/mL
CC(=O)N[C@H](C(=O)N[C@@H](CCCC(=O)OC(C)(C)C)C(=O)N[C@@H](CCC1CCCCC1)C(=O)N[C@@H](CC(=O)O)C(=O)COC(=O)c1c(C)cccc1C)C(C)(C)C,,,"C57BL/6N mouse, female, whole blood","intraperitoneal, dose not given, 1 h",,blood concentration,740 µM and 570 µM
C=Cc1c(C)c2cc3nc(c(CC(=O)[O-])c4[n-]c(cc5nc(cc1[n-]2)C(C)=C5CC)c(C)c4C(=O)[O-])C(CCC(=O)[O-])C3C.[Cu+2].[Na+].[Na+].[Na+] (stereo not drawn),,,"Wistar rat, male","oral, 500 mg/kg daily, 28 days",,blood urea nitrogen,18.3 ± 2.5 mg/dL
COc1ccccc1-c1n[nH]c2nc(NC3CCN(C(=O)Cc4ccc(F)cc4F)CC3)ncc12,,"bead binding, competition bead pull-down, refers to: LINJ.28.2080",Leishmania donovani axenic amastigote extract,10 µM,baseline: vehicle,relative abundance,0.86
O=C1NC2(CC2)COc2ncc(F)cc2[C@H]2COCCN2c2ccn3ncc1c3n2,,,"Sprague-Dawley rat, female, spleen","oral, 20 mg/kg/day, 4 weeks, end of treatment",,organ-to-body weight ratio,0.354 ± 0.101%
CC[C@@H]1C(=O)N(C)c2cnc(Nc3ccc(C(=O)NCCCC[C@H](NC(=O)[C@@H](NC(=O)[C@H](CO)NC(=O)[C@H](Cc4cncn4CCCCCCCCc4ccccc4)NC(=O)[C@H](CC(C)C)NC(=O)[C@@H]4CCCN4C(C)=O)[C@@H](C)CP(=O)(O)O)C(N)=O)cc3OC)nc2N1C1CCCC1,Caco-2,,,"10 µM, 2 h",,recovery A-B,65.2%
CCN(CC)CCOc1ccc(-c2nnn(Cc3ccc(OC)cc3)c2N)cc1,,,rat plasma,120 min,,remaining compound,101%
CC1COC2=C1C(=O)C(=O)c1c2ccc2c1C(OC(=O)CNC(=O)C(N)CO)CCC2(C)C (mixture of isomers),,,saline,"24 h, 25 °C",,equilibrium solubility,370 µg/mL
COc1ccc(-n2cc(C(=O)N3C[C@]4(OC(=O)c5ccccc5NC(C)=O)CC[C@H](OC)[C@@]56[C@@H]4C[C@@H]([C@@H]35)[C@@]3(O)C[C@H](OC)[C@H]4C[C@@H]6[C@]3(O)[C@H]4OC)nn2)cc1,,,"rat Sprague-Dawley, plasma","intravenous, 2 mg/kg",,MRT(0-inf),25.6 min
COc1ccc([C@@H]2CC(=O)c3c(O)cc(O[C@@H]4O[C@H](CO)[C@@H](O)[C@H](O)[C@H]4O[C@@H]4O[C@@H](C)[C@H](O)[C@@H](O)[C@H]4O)cc3O2)cc1O,,,"male Sprague-Dawley rats, lean, faeces","oral, 100 mg/kg, 48 h",baseline: oral dose,faecal recovery,0.143 ± 0.02%
CCCCCCCCCCCC(=O)C(C)C(=O)N1CCC[C@H]1C(=O)NC(C)(C)C(=O)NC(C)(C)C(=O)NC(C)(C)C(=O)N[C@](C)(CC)C(=O)NCCC(=O)N[C@@H](C)C(=O)N[C@](C)(CC)C(=O)N[C@@H](C)C(=O)N[C@@H](CC(C)C)C(=O)N[C@](C)(CC)C(=O)NCCC(=O)N[C@@H](C)C(=O)N[C@](C)(CC)C(=O)NCCC(=O)N[C@@H](C)C(=O)NC(C)(C)C(=O)NC(C)(C)C(=O)NC(C)(C)C(=O)N[C@@H](C)C(=O)N[C@@H](CC(=O)O)C(=O)O (stereo partly drawn),,LC-MS,50% pooled human serum,"40 µM, 120 min, pH 7.5, 37 °C",baseline: 0 h,remaining intact peptide,42.9% and 40%
Cc1ccc(NS(=O)(=O)c2c(C(=O)N3CCCCCC3)c(C)n(C)c2C)c(Cl)c1,human cells,,,"3.704 µM, 60 h",,viability,94.9%
[2H]C([2H])([18F])[C@]([2H])(N)C(=O)O,,PET,"athymic nude mice, U-87 MG","dose not given, 15 min post-injection",baseline: tumour over muscle,tumour-to-muscle ratio,2.3 ± 0.29
CN(C)[C@H]1C[C@@]23CC[C@@]4(O2)C(=CC[C@]2(C)[C@@H](c5ccc6ccncc6c5)CC[C@H]24)C=C3[C@@H](O)[C@@H]1O,"CDK14 (Homo sapiens, UniProt O94921)","ATP probe labelling, inhibitor, KiNativ profiling",,0.1 µM,,inhibition,-4.5%
CCCCCCCCCCCCCCCC(=O)N[C@@H](CCC(=O)NCCOCCOCCC(=O)NCCOCCOCCC(=O)NCCCC[C@H](NC(=O)[C@H](CC(=O)O)NC(=O)[C@H](CC(C)C)NC(=O)[C@H](Cc1ccc(O)cc1)NC(=O)[C@H](CCCCN)NC(=O)[C@H](CO)NC(=O)[C@H](Cc1ccc(O)cc1)NC(=O)[C@H](CC(=O)O)NC(=O)[C@H](CO)NC(=O)[C@@H](NC(=O)[C@H](Cc1ccccc1)NC(=O)[C@@H](NC(=O)CNC(=O)[C@H](CCC(N)=O)NC(=O)[C@@H](CO)NC(=O)[C@@H](N)Cc1c[nH]cn1)[C@@H](C)O)[C@@H](C)O)C(=O)N[C@@H](CCCNC(=N)N)C(=O)N[C@@H](CCCNC(=N)N)C(=O)N[C@@H](C)C(=O)N[C@@H](CCC(N)=O)C(=O)N[C@@H](CC(=O)O)C(=O)N[C@@H](Cc1ccccc1)C(=O)N[C@H](C(=O)N[C@@H](CCC(N)=O)C(=O)N[C@@H](Cc1c[nH]c2ccccc12)C(=O)N[C@@H](CC(C)C)C(=O)N[C@@H](CC(C)C)C(=O)N[C@@H](CC(N)=O)C(=O)N[C@H](C(=O)NCC(=O)NCC(=O)N1CCC[C@H]1C(=O)N[C@@H](CO)C(=O)N[C@@H](CO)C(=O)NCC(=O)N[C@@H](C)C(=O)N1CCC[C@H]1C(=O)N1CCC[C@H]1C(=O)N1CCC[C@H]1C(=O)N[C@@H](CO)C(N)=O)[C@@H](C)O)C(C)C)C(=O)O,,,"rhesus monkey, female","subcutaneous, 300 µg/kg once daily, 28 days",,total cholesterol,2.16 ± 0.8 mmol/L
CC[C@H](C)[C@H](NC(=O)[C@H](CCCNC(=N)N)NC(=O)[C@H](CCCCN)NC(=O)[C@H](Cc1ccc(O)cc1)NC(=O)[C@H](CC(=O)O)NC(=O)[C@H](C)NC(=O)CNC(=O)CCOCCOCCOCCNC(=O)CN1CCN(CC(=O)O)CCN(CC(=O)O)CCN(CC(=O)O)CC1)C(=O)N[C@H](C(=O)N[C@H](C(=O)N[C@@H](CCCCN)C(=O)N[C@H](C(=O)N[C@@H](CC(N)=O)C(N)=O)C(C)C)C(C)C)[C@@H](C)O [copper-64 labelled],,ex vivo gamma counting,"C57BL/6J male mice, B16-F10 tumour, stomach","intravenous, 1.85 MBq, 40 min",,tissue uptake,2.12 ± 0.121 %ID/g
CC(C)(C)C(=O)OCOP(=O)(OCOC(=O)C(C)(C)C)C1CCCN(O)C1=O (stereo not drawn),SN12C,,,,,GI50,334 nM

# A few entries again:
SMILES,target or system,test,test system,conditions,how to read,measurement,value
CC1COC2=C1C(=O)C(=O)c1c2ccc2c1C(OC(=O)CNC(=O)C(N)CO)CCC2(C)C (mixture of isomers),,,saline,"24 h, 25 °C",,equilibrium solubility,370 µg/mL
COc1ccc(-n2cc(C(=O)N3C[C@]4(OC(=O)c5ccccc5NC(C)=O)CC[C@H](OC)[C@@]56[C@@H]4C[C@@H]([C@@H]35)[C@@]3(O)C[C@H](OC)[C@H]4C[C@@H]6[C@]3(O)[C@H]4OC)nn2)cc1,,,"rat Sprague-Dawley, plasma","intravenous, 2 mg/kg",,MRT(0-inf),25.6 min
